# Results collected from several papers.
# Every numbered part comes from another study and shows a few of its results, in no order. Values joined by “and” are separate records of one study, mostly repeats; a detail may differ.

# Series 1
# Cell line: HEK-293T/ACE2
# Concentration: concentration not given
# Time: 16 (unit not given)
# Baseline: vehicle
SMILES,viability
C[C@]12CC[C@H]3[C@@H](CCC4=CC(=O)CC[C@@H]43)[C@@H]1CC[C@@H]2O,98.2%
COc1ccc(-n2nc(C(N)=O)c3c2C(=O)N(c2ccc(N4CCCCC4=O)cc2)CC3)cc1,98.6%
CC(=O)O[C@H]1C[C@@H]2CC[C@@H]3[C@H](CC[C@@]4(C)[C@H]3C[C@H]([N+]3(C)CCCCC3)[C@@H]4OC(C)=O)[C@@]2(C)C[C@@H]1N1CCCCC1,103%
CC(=O)OCC(COC(C)=O)OC(C)=O,100%

# Series 2
# Target: Replicase polyprotein 1ab, main protease (rep, Severe acute respiratory syndrome coronavirus 2, UniProt P0DTD1)
# Read-out: enzyme activity
# Mode: inhibitor
# Concentration: 20 µM
# Setting: hit confirmation
SMILES,inhibition [%]
CO/N=C(\C(=O)N[C@@H]1C(=O)N2C(C(=O)OCOC(=O)C(C)(C)C)=C(/C=C\c3scnc3C)CS[C@H]12)c1csc(N)n1,24
CC[n+]1c(-c2ccccc2)c2cc(N)ccc2c2ccc(N)cc21,60.2
N[C@@H](C(=O)N[C@@H]1C(=O)N2C(C(=O)O)=C(Cl)CS[C@H]12)c1ccccc1,74.4
O=C1/C(=C/c2ccccc2)C(NC2CCCCC2)c2ccccc21 (stereo not drawn),22.9

# Series 3
# Target: Histone acetyltransferase KAT6A, winged helix 2, GST fusion (KAT6A, Homo sapiens, UniProt Q92794, residues 85-181)
# Method: protein binding microarray
# Form: double-stranded DNA, one strand shown
# Medium: in vitro
# Concentration: not given
# Setting: 8-mer, flanks averaged, mean of 2 arrays, mostly near background
# Baseline: not given
# Direction: higher = stronger binding
# Construct (chain): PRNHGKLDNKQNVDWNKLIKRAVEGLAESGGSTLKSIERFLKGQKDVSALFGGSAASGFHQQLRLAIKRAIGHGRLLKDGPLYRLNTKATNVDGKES
Oligonucleotide,E-score
AAAATTCG,0.0263
CTGGCTCC,0.0105
GGAGCGAC,0.101
AATGTGGG,-0.152
CCTAATCC,-0.166
ATGGGATA,-0.0458
ACATCGGC,0.0166
GATAGGGC,0.0688

# Series 4
# Target: RNA binding protein fox-1 homolog 2, RRM domain, GST-SBP tag (RBFOX2, Homo sapiens, UniProt O43251-10, residues 100-194)
# Method: RNA Bind-n-Seq
# Form: RNA
# Medium: in vitro
# Concentration: 365 nM
# Setting: natural RNA segment, single round, ends assumed
# Baseline: no-protein control
# Direction: higher = stronger binding
# Shared flanks, not repeated: GGGAGUUCUACAGUCCGACGAUC … UGGAAUUCUCGGGUGCCAA
# Construct (chain): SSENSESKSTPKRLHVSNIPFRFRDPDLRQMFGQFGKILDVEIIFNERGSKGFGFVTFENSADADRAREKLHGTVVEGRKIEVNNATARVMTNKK
Oligonucleotide,RBNS enrichment (R)
GGGGUCUUUUACAGGUCAUGUUGGUUGCUGCUGCUUCUGUCAGGAAGUACCCUAGCUCCACGUACUCCCCGCCCCCCGCCGCCCCCUUCACAACCUUAUGUGUACAUGAC,0.294
AUUGAAAAGACACUCCUCCACUUAUCCCCUCCGUGAUAUGGCUCUUCGCAUGCUGAGUACUGGACCUCGGACCAGAGCCAUGUAAGAAAAGGCCUGUUCCCUGGAAGCCC,8.15
GGAACCUGGAAUCACACAUACCUCGUGGUACUUUUGCCUUAGAUUUUACACUCUCAACAGCCAAGCACUGCCACGGGGCAGCCACAAUGCCAUGCGUGCUCCAGAGCCUA,0.27
CUUAGAAAAGGAGAAAGGAAUUCCUUUUCCCGCCCGAACAUGAAGAAAAAUGACCUGACCCUGUAGAGAGAACACAGUGUGAAUGUUUCCCCUCGUGUGAGCCCAGCCUG,0.926
CUAAAAUCUGAUUUGCAGCCAGGAAAGAAUUUUCUCACCCAAGGAACAUUUGAUCUAGCAGCAGGGAUGAGAGGAAAGCAGAAAUGAAUGAACUGUGAAAGCUCCUGUUU,0.566
GUACGGUCUGAAGUUAUGUCUAGAUAAGACUUCAGACGUCCUGGGAUUGAAAGAAUGUGUGUGAAGGGGUAGAAUUUGUGCGGUAAAGACUUAAAAAAAAAAGUAGGGAG,5.79
GCUCCUUCACACCCCUUCCAAAAGUCAGUCACAGACCACUGCAACAUGCCUUCCCUGCUGGAUCAUUAUAUACAUUCAGAUUGUGAGUGGAUUGCCUUGGUUGACUUUUA,0.51
UGUAACCACUGCUUCAGUCACCUCCCACCUCUUGCCACCUGCUGCUGCUAUCUGUCCUUACUUGUGGGCUUCUCCAUGCUGUGCCAAUGGCUGGCUUUUUCUACACCCUC,0.451

# Series 5
# Target: Replicase polyprotein 1ab, nsp13 helicase (rep, Severe acute respiratory syndrome coronavirus 2, UniProt P0DTD1)
# Mode: inhibitor
# Concentration: 20 µM
SMILES,inhibition
CCN1CCN(C(=O)Cc2ccc(Nc3ncc(F)c(Nc4ccc(C(=O)Nc5ccccc5Cl)cc4)n3)cc2)CC1,2.46%
COc1c(C)cnc(Cn2cnc3c(Cl)nc(N)nc32)c1C,-0.81%
COc1ccc2c3c([nH]c2c1)[C@H](CC(C)C)N1C(=O)[C@H](CCC(=O)OC(C)(C)C)NC(=O)[C@@H]1C3,10.7%
Cc1ccccc1-c1cc(N2CCN(C)CC2)ncc1N(C)C(=O)C(C)(C)c1cc(C(F)(F)F)cc(C(F)(F)F)c1,7.71%
Oc1cc2c(cc1O)C(c1ccccc1)CNCC2 (stereo not drawn),5.71%
CCCC(CCC)C(=O)O,-1.45%
CCn1cnc(C(=O)NC)c1C(=O)NC,2.24%
CN(C)C/C=C(/c1ccc(Br)cc1)c1cccnc1,0.44%
CN1CC[C@@H]2CN3CCc4cccc(c43)[C@@H]2C1,2.77%
CC(C)Cn1cnc2c(N)nc3ccccc3c21,-2.31%
COc1cc2c(cc1OC)CC(=O)N(CCCN(C)C[C@H]1Cc3cc(OC)c(OC)cc31)CC2,7.32%
CCCOc1ccc2[nH]c(NC(=O)OC)nc2c1,6.46%
N=C(N)SCc1ccc(B(O)O)cc1,15.8%
CC(=O)N[C@@H](CS)C(=O)O,1.24%
Cn1nccc1Nc1nccc(-c2ccn([C@H](CO)c3ccc(Cl)c(F)c3)c(=O)c2)n1,-9.73% and 5.07%
CN1C(=O)C(F)=C[C@]2(C)[C@H]3CC[C@]4(C)[C@@H](C(=O)NCc5nc6cccnc6[nH]5)CC[C@H]4[C@@H]3CC[C@@H]12,4.96%
O=C(Oc1ccc(Br)cc1)N1CCN2CCC1CC2,4.07%
O=c1ccc2ccc(OCCCCN3CCN(c4cccc5sccc45)CC3)cc2[nH]1,11.6%
CC(=O)Oc1ccccc1C(=O)O,4.11%
O=C1c2cccc(O)c2C(=O)c2c(O)cccc21,10.3%
O=C(O)C1=C[C@@H](O)[C@@H](O)[C@H](O)C1,3.2%
CSc1ccc([C@@H]2CN3CCC[C@@H]3c3ccccc32)cc1 (racemic),5.54%
C[C@H]([C@@H](O)c1ccc(O)cc1)N1CCC(Cc2ccccc2)CC1 (racemic),4.08%
CCCCOc1nc(N)c2c(n1)N(Cc1cccc(CN3CCCC3)c1)CC(=O)N2,10%

# For quick reference, copied from above (series 4):
Oligonucleotide,RBNS enrichment (R)
AUUGAAAAGACACUCCUCCACUUAUCCCCUCCGUGAUAUGGCUCUUCGCAUGCUGAGUACUGGACCUCGGACCAGAGCCAUGUAAGAAAAGGCCUGUUCCCUGGAAGCCC,8.15
CUAAAAUCUGAUUUGCAGCCAGGAAAGAAUUUUCUCACCCAAGGAACAUUUGAUCUAGCAGCAGGGAUGAGAGGAAAGCAGAAAUGAAUGAACUGUGAAAGCUCCUGUUU,0.566
GGAACCUGGAAUCACACAUACCUCGUGGUACUUUUGCCUUAGAUUUUACACUCUCAACAGCCAAGCACUGCCACGGGGCAGCCACAAUGCCAUGCGUGCUCCAGAGCCUA,0.27
GGGGUCUUUUACAGGUCAUGUUGGUUGCUGCUGCUUCUGUCAGGAAGUACCCUAGCUCCACGUACUCCCCGCCCCCCGCCGCCCCCUUCACAACCUUAUGUGUACAUGAC,0.294
GCUCCUUCACACCCCUUCCAAAAGUCAGUCACAGACCACUGCAACAUGCCUUCCCUGCUGGAUCAUUAUAUACAUUCAGAUUGUGAGUGGAUUGCCUUGGUUGACUUUUA,0.51
